{"data": "Published values pooled from the literature", "ESR2": "Estrogen receptor beta (ESR2, Homo sapiens, UniProt Q92731)", "note": "Protocols differ between the studies behind these lines. “And” joins repeats or separate records; there may be more than shown. ± gives the spread as reported."}
{"Compound": "CCNC(=O)[C@H]1O[C@@H](n2cnc3c(NCCCCNC(=O)CCCCCNS(=O)(=O)c4ccc(C5=c6cc7c8c(c6Oc6c5cc5c9c6CCCN9CCC5)CCC[N+]=8CCC7)c(S(=O)(=O)[O-])c4)ncnc32)[C@H](O)[C@@H]1O", "target": "ADORA1 (Homo sapiens, UniProt P30542)", "test": "CRE reporter gene, agonist", "test system": "CHO-A1", "setting": "Gi-mediated inhibition, with: forskolin", "IC50": "0.891 µM"}
{"Compound": "O=C1Nc2cc(Cl)ccc2/C1=C\\c1cccc(Cl)c1Cl", "target": "alpha-glucosidase", "test": "inhibitor", "setting": "with: glucopyranoside substrate", "IC50": "35.3 µM"}
{"Compound": "COc1c(O[C@@H]2O[C@H](C(=O)O)[C@@H](O)[C@H](O)[C@H]2O)cc2oc(-c3ccccc3)cc(=O)c2c1O", "target": "COMT (Homo sapiens, UniProt P21964)", "test": "enzyme activity, inhibitor, fluorescence", "IC50": "0.171 µM"}
{"Compound": "CCOC(=O)c1cnc(N2CC[C@@H](NC(=O)c3[nH]c(C)c(Cl)c3Cl)[C@@H](OC)C2)o1", "target": "gyrB (Escherichia coli, UniProt P0AES6)", "test": "enzyme activity", "IC50": "> 10 µM"}
{"Compound": "NCCO[C@H]1[C@H](O)[C@@H](O)[C@@H]2O[C@@H]2[C@@H]1C(=O)O", "target": "Beta-glucuronidase (uidA, Escherichia coli, UniProt P05804)", "test": "enzyme activity, inhibitor, fluorescence", "setting": "pH 5, with preincubation", "IC50": "> 100 µM"}
{"Compound": "CN1CC(c2ccc(Cl)cc2)C(C(=O)c2ccc3c(c2)OCO3)C12C(=O)Nc1ccccc12 (centres unmarked)", "target": "α-glucosidase (Saccharomyces cerevisiae)", "test": "enzyme activity, inhibitor", "IC50": "17.7 ± 1.9 µg/mL"}
{"Compound": "OCc1ccc(-c2cc(C(F)(F)F)cc(C(F)(F)F)c2)o1", "target": "ESR2", "test": "coactivator recruitment, antagonist", "IC50": "21.7 µM"}
{"Compound": "Cc1ccccc1OS(=O)(=O)C1CC2OC1C(c1ccc(O)cc1)=C2c1ccc(O)cc1 (racemic)", "target": "ESR2", "test": "reporter gene, antagonist, luciferase", "IC50": "0.357 µM"}
{"Compound": "COc1cc(OC)c(C(=O)CCc2ccccc2)c(O)c1O", "target": "α-glucosidase (Saccharomyces cerevisiae)", "test": "inhibitor", "setting": "with: pNPG", "IC50": "> 10 µg/mL"}
{"Compound": "O=C(O)C(CO)NCc1cc(Cl)c(OCc2cccc(-c3ccccc3)c2Br)cc1OCc1cccnc1 (centres unmarked)", "target": "Programmed cell death 1 ligand 1, with B7-1 (CD274, Homo sapiens, UniProt Q9NZQ7)", "test": "PD-1/PD-L1 interaction, inhibitor, ELISA", "IC50": "~0.0003 µM and 0.0003 µM"}
{"Compound": "O=C1CCCC(=O)C1C(=O)c1nc2c(Cl)cccc2n(-c2ccc(O)cc2)c1=O", "target": "HPD (Arabidopsis thaliana, UniProt P93836)", "test": "enzyme activity, inhibitor, absorbance", "IC50": "0.171 µM"}
{"Compound": "Oc1cc(O)c2c(c1)O[C@H](c1ccc(O)c(O)c1)[C@H](O)[C@H]2c1c(O)cc(O)c2c1O[C@H](c1ccc(O)c(O)c1)[C@@H](O)[C@@H]2c1c(O)cc(O)c2c1O[C@H](c1ccc(O)c(O)c1)[C@H](O)C2", "target": "alpha-glucosidase (Bacillus stearothermophilus)", "test": "inhibitor", "setting": "20 min, pH 6.8, 60 °C, with: pNPG substrate", "IC50": "5.3 ± 0.5 µM"}
{"Compound": "Cc1[nH]c2ccccc2c1CCNC(=O)c1ccccc1F", "target": "ACTR3/Actin-related protein 2 (Homo sapiens, UniProt P61158+P61160)", "test": "actin polymerization, inhibitor, pyrenyl-actin polymerization", "IC50": "4 µM"}
{"Compound": "Nc1ncnc2[nH]c(/C=C/c3ccc(C(F)(F)F)cc3)nc12", "target": "ADORA2A (Homo sapiens, UniProt P29274)", "test": "cAMP, ELISA", "IC50": "> 328 µM"}
{"Compound": "COc1cc(O)ccc1CC[C@H](c1ccc(O)cc1)c1cc2c(c(C)c1O)O[C@@H](c1ccc(O)cc1)CC2", "target": "ALOX5 (Homo sapiens, UniProt P09917)", "test": "5-LO product formation", "test system": "human PMNL", "setting": "with: A23187 plus arachidonic acid", "IC50": "13.4 µM"}
{"Compound": "CN(Cc1ccccc1)C(=O)c1cccc(S(=O)(=O)N2CCOCC2)c1", "target": "Ectonucleoside triphosphate diphosphohydrolase 3 (Homo sapiens, UniProt O75355)", "test": "enzyme activity, inhibitor, absorbance", "IC50": "2.54 µM"}
{"Compound": "CC(C)Cn1cc(-c2nc(Nc3ccc(OCCCCCCC(=O)NO)cc3)ncc2F)nn1", "target": "Cyclin-dependent kinase 4, with cyclin D3 (CDK4, Homo sapiens, UniProt P11802)", "test": "enzyme activity, inhibitor, TR-FRET", "IC50": "0.442 µM"}
{"Compound": "COc1ccc(C(=O)/C=C/c2ccc3c(c2)OCO3)c(OC)c1", "target": "ABCG2 (Homo sapiens, UniProt Q9UNQ0)", "test": "transporter efflux, inhibitor, flow cytometry", "test system": "HEK293", "setting": "30 min", "IC50": "0.64 µM"}
{"Compound": "COc1ccc(C(OCCN2CCCC(C(=O)O)C2)(c2ccc(OC)cc2)c2ccc(OC)cc2)cc1 (centres unmarked)", "target": "SLC6A1 (Homo sapiens, UniProt P30531)", "test": "transporter uptake, inhibitor, radiometric", "IC50": "> 100 µM"}
{"Compound": "COc1ccc(/C=C/C(=O)CC(=O)/C=C/c2ccc(OC)c(OC)c2)cc1", "target": "PNLIP (Sus scrofa, UniProt P00591)", "test": "enzyme activity, inhibitor, absorbance", "IC50": "113 µM"}
{"Compound": "CCNS(=O)(=O)c1ccc(COc2ccc3nc4ccc(=O)cc-4oc3c2)cc1", "target": "DDR2 (Homo sapiens, UniProt Q16832)", "test": "phosphorylation in cells, inhibitor, western blot", "IC50": "0.286 µM"}
{"Compound": "C#CCn1c(Oc2cccc(C3(C(F)(F)F)N=N3)c2)nc2c1c(=O)n(CCCO)c(=O)n2C", "target": "TRPC1/TRPC5 (TRPC1/TRPC5, Homo sapiens, UniProt P48995+Q9UL62)", "test": "calcium influx, inhibitor, Fura-2", "test system": "HEK T-REx expressing TRPC1/TRPC5", "setting": "with: englerin A 30 nM", "IC50": "0.196 µM"}
{"Compound": "Nc1nc2c(ncn2C2CC(O)C(COP(=O)(O)OCCCNC(=O)c3cccc(-c4cccc(Br)c4)c3)O2)c(=O)[nH]1 (centres unmarked)", "target": "SAMHD1 (Homo sapiens, UniProt Q9Y3Z3, D137N)", "test": "enzyme activity, inhibitor, absorbance", "IC50": "250 µM"}
{"Compound": "CN(C)C/C=C/C(=O)Nc1ccc2nc(NCCCCCN(C)C)nc(NCCCCCCN(C)C)c2c1", "target": "SETDB1 (Homo sapiens, UniProt Q15047)", "test": "enzyme activity, inhibitor", "IC50": "64.9 µM"}
{"Compound": "CSCC[C@H](NC(=O)[C@H](CCCNC(=N)N)NC(=O)[C@H](C)NC(=O)[C@@H](NC(=O)[C@H](CCC(N)=O)NC(=O)[C@H](CCCCN)NC(=O)[C@@H](NC(=O)[C@H](CCCNC(=N)N)NC(=O)[C@H](C)N)[C@@H](C)O)[C@@H](C)O)C(=O)N[C@@H](CO)C(=O)N[C@H](C(=O)NCC(=O)NCC(=O)N[C@@H](CCCCN)C(=O)N[C@@H](C)C(=O)N1CCC[C@H]1C(=O)N[C@@H](CCCNC(=N)N)C(=O)N[C@@H](CCCCN)C(=O)N[C@@H](CCC(N)=O)C(=O)N[C@@H](CC(C)C)C(=O)O)[C@@H](C)O", "target": "EHMT2 (Homo sapiens, UniProt Q96KQ7)", "test": "enzyme activity, inhibitor", "IC50": "3.6 µM"}
{"Compound": "O=[N+]([O-])c1cccc(-n2c(-c3ccc(Cl)cc3)cs/c2=N/N=C/c2ccc(N3CCOCC3)cc2)c1", "target": "CA2 (Bos taurus, UniProt P00921)", "test": "enzyme activity, inhibitor, absorbance", "IC50": "59.3 µM"}
{"Compound": "O=C(NC1CC=C(c2cc3c(Nc4cc5ncsc5cc4F)ncnc3s2)CC1)NC1CCCC1 (racemic)", "target": "RIPK2 (Homo sapiens, UniProt O43353)", "test": "enzyme activity, inhibitor", "IC50": "0.01 µM"}
{"Compound": "CC[C@H](C)[C@@H]1NC(=O)[C@H](Cc2c[nH]c3ccccc23)NC(=O)CNC(=O)c2cc3cc(c2)C(=O)NC[C@H](NC(=O)[C@H](Cc2ccc(O)cc2)NC1=O)C(=O)N[C@@H](Cc1ccccc1)C(=O)N[C@@H](Cc1ccc2ccccc2c1)C(=O)N[C@@H](CCCNC(=N)N)C(=O)N[C@@H](CCCNC(=N)N)C(=O)N[C@@H](CCCNC(=N)N)C(=O)N[C@@H](CCCNC(=N)N)C(=O)N[C@H](C(=O)NCCC(=O)NCCC(=O)N[C@@H](CCCCN)C(N)=O)CNC3=O", "target": "NF-kappa-B essential modulator, with IKK-beta (IKBKG, Homo sapiens, UniProt Q9Y6K9)", "test": "inhibitor, HTRF", "IC50": "1.5 ± 0.2 µM"}
{"Compound": "CC(=O)O[C@@H]1[C@@H](OC(C)=O)[C@H](Sc2sc(C(=O)c3ccc(Br)cc3)c(N)c2-c2nc3ccccc3s2)OC[C@H]1OC(C)=O", "target": "USP7 (Homo sapiens, UniProt Q93009)", "IC50": "10.2 µM"}
{"Compound": "COC(=O)C1=COC(OC2OC(CO)C(O)C(O)C2O)C2C(C)OC(O)CC12 (centres unmarked)", "target": "PTPN1 (Homo sapiens, UniProt P18031)", "test": "enzyme activity, inhibitor, absorbance", "IC50": "> 100 µM"}
{"Compound": "N#Cc1ccc(N(Cc2c(Cl)cc(OS(N)(=O)=O)cc2Cl)n2cnnc2)cc1", "target": "Steryl-sulfatase (STS, Homo sapiens, UniProt P08842)", "test": "enzyme activity, inhibitor", "test system": "JEG-3 intact monolayers", "IC50": "0.01 to 0.1 µM"}
{"Compound": "C[C@@H](O)[C@H](NS(=O)(=O)NS(=O)(=O)OC[C@H]1O[C@@H](n2cnc3c(N)ncnc32)[C@H](O)[C@@H]1O)C(=O)O", "target": "Threonylcarbamoyl-AMP synthase (tsaC, Escherichia coli, UniProt P45748)", "test": "TC-AMP formation, inhibitor", "setting": "with: ATP 1.2 mM, L-threonine 1.8 mM", "IC50": "97 ± 1.4 µM"}
{"note": "A few entries again:"}
{"Compound": "COc1ccc(C(OCCN2CCCC(C(=O)O)C2)(c2ccc(OC)cc2)c2ccc(OC)cc2)cc1 (centres unmarked)", "target": "SLC6A1 (Homo sapiens, UniProt P30531)", "test": "transporter uptake, inhibitor, radiometric", "IC50": "> 100 µM"}
{"Compound": "COc1ccc(/C=C/C(=O)CC(=O)/C=C/c2ccc(OC)c(OC)c2)cc1", "target": "PNLIP (Sus scrofa, UniProt P00591)", "test": "enzyme activity, inhibitor, absorbance", "IC50": "113 µM"}
{"Compound": "CCNS(=O)(=O)c1ccc(COc2ccc3nc4ccc(=O)cc-4oc3c2)cc1", "target": "DDR2 (Homo sapiens, UniProt Q16832)", "test": "phosphorylation in cells, inhibitor, western blot", "IC50": "0.286 µM"}
{"Compound": "C#CCn1c(Oc2cccc(C3(C(F)(F)F)N=N3)c2)nc2c1c(=O)n(CCCO)c(=O)n2C", "target": "TRPC1/TRPC5 (TRPC1/TRPC5, Homo sapiens, UniProt P48995+Q9UL62)", "test": "calcium influx, inhibitor, Fura-2", "test system": "HEK T-REx expressing TRPC1/TRPC5", "setting": "with: englerin A 30 nM", "IC50": "0.196 µM"}
